Measured values pooled from the literature.
Compare with care: the assays were run in different laboratories. Values joined by “and” are separate records of one study, mostly repeats; a detail may differ. ± gives the spread as reported. In brackets after ≈: the same amount, converted by molar mass.

| Compound | organism | assay | system | conditions | scale | endpoint | result |
| --- | --- | --- | --- | --- | --- | --- | --- |
| CC1=NOC(=O)C1=NNc1ccc(S(N)(=O)=O)cc1 | Saccharomyces cerevisiae | – | – | 10 µg/mL | – | glucose uptake | 11.679 ± 0.00065% |
| Cc1cc(OC(C)C)ccc1C(=O)C(C)(C)NC(=O)c1sccc1C | Botrytis cinerea | appressorium formation | B05.10 | 0.03 µg/mL | – | inhibition | 63.8 ± 26.9% |
| CC1=NNC(=S)NC(=O)C1/N=N/c1ccc(S(N)(=O)=O)cc1 (centres unmarked) | Saccharomyces cerevisiae | – | – | 100 µg/mL | – | glucose uptake | 53.8% |
| COc1ccc(C[C@H](NC(=O)[C@H](C)NC(=O)CN2CCOCC2)C(=O)N[C@@H](Cc2ccccc2)C(=O)C2(C)CO2)cc1 (stereo in doubt) | Plasmodium falciparum | – | 3D7 | 3 x IC50, treatment from late stage | – | new ring formation | 3 to 5% |
| CO/N=C(\C(=O)N[C@@H]1C(=O)N2C(C(=O)O)=C(CSc3nc(=O)c(O)nn3C)CS[C@H]12)c1csc(N)n1 | Neisseria gonorrhoeae | broth microdilution | WHO K | 1.5 h | – | MIC | 1 µg/mL (≈ 1.8 µM) |
| Nc1nc(-c2ccccc2)nc2[nH]nc(Nc3ccc(C(F)(F)F)cc3)c12 | coxsackievirus B3 | – | 31-1-93, NMRI mice, CVB3 chronic myocarditis | oral, 100 mg/kg twice daily, day 6, dosed days 0 to 6, score scale 0 to 7 | direction not given | clinical score | 0.1 |
| CC(=O)NC[C@H]1CN(c2ccc(N3CCOCC3)c(F)c2)C(=O)O1 | Streptococcus pyogenes | – | 10 isolates | pH 5.5 | – | MIC50 | 1 µg/mL (≈ 2.96 µM) |
| CCCCCOc1ccc(-c2ccc(-c3ccc(C(=O)N[C@H]4C[C@@H](O)[C@@H](OCC[N+](C)(C)C)NC(=O)[C@@H]5[C@@H](O)[C@@H](C)CN5C(=O)[C@H]([C@@H](C)O)NC(=O)[C@H]([C@H](O)[C@@H](O)c5ccc(O)cc5)NC(=O)[C@@H]5C[C@@H](O)CN5C(=O)[C@H]([C@@H](C)O)NC4=O)cc3)cc2)cc1 | Candida glabrata | – | 10956, neutropenic mouse, disseminated candidiasis | dose not given, average 24 h AUC over 7 days | – | free AUC/MIC for 1 log kill | 3.9 |
| CC1=NN(c2cccc([N+](=O)[O-])c2)C(=O)C1=NNc1ccc(S(N)(=O)=O)cc1 | Saccharomyces cerevisiae | – | – | 200 µg/mL | – | glucose uptake | 29% |
| CC(C)[C@@H]1NC(=O)[C@@H](CCN)NC(=O)[C@H]([C@@H](C)O)NC(=O)[C@@H](CCCN)NC(=O)[C@H](Cc2ccccc2)NC(=O)[C@@H](Cc2ccccc2)NC1=O | Naegleria fowleri | – | – | trophozoites | – | IC50 | > 16 µg/mL |
| C=C[C@]1(C)C[C@@H](OC(=O)CS[C@@H]2C[C@H]3CC[C@@H](C2)N3C)[C@]2(C)[C@H](C)CC[C@]3(CCC(=O)[C@H]32)[C@@H](C)[C@@H]1O | Streptococcus pyogenes | – | 40 clinical isolates | – | – | MIC50 | 0.0312 µg/mL (≈ 0.0604 µM) |
| CC1=NN(c2ccccn2)C(=O)C1=NNc1ccc(S(N)(=O)=O)cc1 | Saccharomyces cerevisiae | – | – | 10 µg/mL | – | glucose uptake | 4.927 ± 0.000417% |
| CN[C@H](CC(C)C)C(=O)N[C@H]1C(=O)N[C@@H](CC(N)=O)C(=O)N[C@H]2C(=O)N[C@H]3C(=O)N[C@H](C(=O)N[C@H](C(=O)O)c4cc(O)cc(O)c4-c4cc3ccc4O)[C@H](O)c3ccc(c(Cl)c3)Oc3cc2cc(c3O[C@@H]2O[C@H](CO)[C@@H](O)[C@H](O)[C@H]2O[C@H]2C[C@](C)(N)[C@H](O)[C@H](C)O2)Oc2ccc(cc2Cl)[C@H]1O | Staphylococcus aureus | – | USA300 LAC, female ICR mice, peritonitis, peritoneal fluid | – | – | bacterial load | 4.5 log CFU and 5.31 log CFU and 4.85 log CFU and 3.88 log CFU and 4.75 log CFU and 3.22 log CFU |
| CN[C@H](CC(C)C)C(=O)N[C@H]1C(=O)N[C@@H](CC(N)=O)C(=O)N[C@H]2C(=O)N[C@H]3C(=O)N[C@H](C(=O)N[C@H](C(=O)O)c4cc(O)cc(O)c4-c4cc3ccc4O)[C@H](O)c3ccc(c(Cl)c3)Oc3cc2cc(c3O[C@@H]2O[C@H](CO)[C@@H](O)[C@H](O)[C@H]2O[C@H]2C[C@](C)(N)[C@H](O)[C@H](C)O2)Oc2ccc(cc2Cl)[C@H]1O | Streptococcus pyogenes | – | 10 isolates | serum 75% | – | MIC50 | 1 µg/mL (≈ 0.69 µM) |
| COC(=O)[C@@H](NCc1cc2ccccc2nc1OCc1ccccc1)C(C)C | Pseudomonas aeruginosa | – | – | 32 µg/mL, without pentamidine | relative to: control | growth | 93.9% |
| N=C(N)c1ccc(OCCC(CCOc2ccc(C(=N)N)cc2)c2ccccc2)cc1 (centres unmarked) | Escherichia coli | checkerboard | mcr-2 polymyxin-resistant | unit not given, together with: rifampicin | lower = stronger synergy | FICI | ≤ 0.063 |
| OC(Cn1cncn1)(Cn1cncn1)c1ccc(F)cc1F | Candidozyma auris | inhibitor | 278 | 24 h | – | MIC | 128 µg/mL (≈ 418 µM) |
